Measurements gathered from unrelated publications.
A part holds a random share of what one study measured. Substitutions count along the parent as printed.

Study 1
Target: Interferon regulatory factor 5, full length, phosphomimetic (IRF5, Homo sapiens, UniProt Q13568-2, residues 1-514, S451D/S453D/S456D/S462D)
Method: protein-binding microarray
Form: double-stranded DNA, one strand shown
Matrix: in vitro
Tested at: 940 nM top
Notes: 60-bp whole probe
With: salmon DNA 0.4 mg/ml
Baseline: random background probes
Reading: higher = stronger binding
All sequences stand within: GCCTAGCAC … GTCTTGATTCGCTTGACGCTGCTG
`TTAGCTTTCGACTTTCGGTTAGTGCTA` — result for “fitted relative affinity”: 5.07 z-score.
`TTAGGTATGGGTTTCGGTTAGTGCTAG`: “fitted relative affinity” 6.7 z-score.
Under “fitted relative affinity”, `GACTTTTTACCTGTGGTGTAGTGCTAG` is recorded as -0.066 z-score.
Under “fitted relative affinity”, `TTAGGACTGGGATATCGGTTAGTGCTA` is recorded as -0.194 z-score.
`TGAAATTTTAATAACACAGAGTGCTAG` — result for “fitted relative affinity”: 0.0112 z-score.
For `CCACTTTTATTTTCAGTATTGTGCTAG`, “fitted relative affinity” read 2.22 z-score.
Under “fitted relative affinity”, `TTCGGTTTCGGGTATCGGTTAGTGCTA` is recorded as 11.1 z-score.
`TACGATTTCGGGTTTCGAGACGTGCTA`: “fitted relative affinity” 2.37 z-score.
Under “fitted relative affinity”, `CTTTAACTTATTCTCTACTTGTGCTAG` is recorded as 1.79 z-score.
For `GACGATATCGGGTTTCGAGATGTGCTA`, “fitted relative affinity” read 2.35 z-score.
`GTCGATATCGGGTTTCGAGACGTGCTA` — result for “fitted relative affinity”: 3.09 z-score.
For `GACGGATTCCTTCTCCTGACGTGCTAG`, “fitted relative affinity” read 0.0737 z-score.
`AACGATCTCAGTATCGAGACGTGCTAG` — result for “fitted relative affinity”: 2.06 z-score.
For `TTAGCTATCAGTTTCGATTAGTGCTAG`, “fitted relative affinity” read 7.61 z-score.
For `ATTCTTTGCTCATTTTTCAGGGTGCTA`, “fitted relative affinity” read 1.03 z-score.
`GTGTTTTTCTCCTATTTAAGAGTGCTA` — result for “fitted relative affinity”: 1.69 z-score.
`TTAGAACTAGGGTATCGATTAGTGCTA` — result for “fitted relative affinity”: 1.38 z-score.
For `TTAGGTTTGGGGTTTCGGTTAGTGCTA`, “fitted relative affinity” read 5.8 z-score.
For `GACGGTTTCGACTATCGGGAAGTGCTA`, “fitted relative affinity” read 8.33 z-score.
For `GACGGTTTCGGTCTCGGAACGTGCTAG`, “fitted relative affinity” read 13.6 z-score.
`TTAGGGATCGGGACTGGGTTAGTGCTA` — result for “fitted relative affinity”: -0.312 z-score.
Under “fitted relative affinity”, `TCACTTTCCTTTATGTAACTGTGCTAG` is recorded as 1.88 z-score.
`TGCACTCTTTACATGGGTTTGTGCTAG`: “fitted relative affinity” 0.336 z-score.

Study 2
Target: OGT, full length, His-tagged (human)
Method: phage display, sequencing
Matrix: in vitro
Tested at: 1 µg OGT
Notes: single substitutions, 15-mer displayed peptide, unchanged parent 6.14
Baseline: input library
Reading: higher = stronger binding
Starting sequence: peptide; VAYPNSYMPKYQIST
`M8Q` gave a fold enrichment of 0.901 fold.
`A2L` gave a fold enrichment of 7.49 fold.
For `P9A`, the fold enrichment was 1.27 fold.
The fold enrichment of `P9Y` is reported as 1.32 fold.
The fold enrichment of `S6V` is reported as 6.83 fold.
`Q12G` gave a fold enrichment of 0.692 fold.
For `Q12K`, the fold enrichment was 0.993 fold.
For `P9T`, the fold enrichment was 1.35 fold.
`Q12I` has a fold enrichment of 1.91 fold.
`M8Y` gave a fold enrichment of 2.77 fold.
With `Y11K` the fold enrichment was 0.752 fold.
The fold enrichment of `N5G` is reported as 6.68 fold.
The fold enrichment of `Y7V` is reported as 0.621 fold.
For `P4H`, the fold enrichment was 5.79 fold.

Study 3
Target: CCND2, cyclin fold, Cln2 fusion (human)
Method: yeast growth competition, sequencing
Matrix: yeast
Notes: weak parent motif
Baseline: not given
Reading: higher = stronger binding
Starting sequence: SLBP docking peptide (human); ARYKRKLLINDFG; partner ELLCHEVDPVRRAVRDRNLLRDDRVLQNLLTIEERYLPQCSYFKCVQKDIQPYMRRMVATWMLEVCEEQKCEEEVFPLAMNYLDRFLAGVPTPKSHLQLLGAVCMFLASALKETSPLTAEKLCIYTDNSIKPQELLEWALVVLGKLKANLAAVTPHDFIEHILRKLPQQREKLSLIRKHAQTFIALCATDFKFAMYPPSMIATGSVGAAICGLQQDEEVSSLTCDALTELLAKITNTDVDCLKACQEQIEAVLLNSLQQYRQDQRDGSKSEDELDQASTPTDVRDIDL
`N10K` — result for “normalised enrichment score”: -0.0422.
`D11S` — result for “normalised enrichment score”: 0.0619.
For `F12Y`, “normalised enrichment score” read 0.407.
Under “normalised enrichment score”, `R2V` is recorded as 0.0794.
`L8N` — result for “normalised enrichment score”: 0.302.
For `F12I`, “normalised enrichment score” read 0.0546.
`Y3A` — result for “normalised enrichment score”: 0.573.
`N10V` — result for “normalised enrichment score”: -0.007.
Under “normalised enrichment score”, `A1C` is recorded as -0.216.
`R5I`: “normalised enrichment score” 0.0878.
Under “normalised enrichment score”, `L7A` is recorded as 0.0146.
`R2I`: “normalised enrichment score” 0.102.
Under “normalised enrichment score”, `L8S` is recorded as 0.0966.
`K4W`: “normalised enrichment score” 0.721.
`R5A`: “normalised enrichment score” 0.181.
`Y3F`: “normalised enrichment score” -0.054.
Under “normalised enrichment score”, `Y3W` is recorded as -0.0665.
For `Y3G`, “normalised enrichment score” read -0.00227.
For `L8G`, “normalised enrichment score” read 0.168.
Under “normalised enrichment score”, `K4S` is recorded as -0.0667.
For `Y3S`, “normalised enrichment score” read 0.577.
Under “normalised enrichment score”, `Y3E` is recorded as 0.134.
`I9W` — result for “normalised enrichment score”: -0.278.
`D11L`: “normalised enrichment score” 0.0206.
`Y3C`: “normalised enrichment score” 0.304.

Study 4
Target: RNA binding protein fox-1 homolog 2, RRM domain, GST-SBP tag (RBFOX2, Homo sapiens, UniProt O43251-10, residues 100-194)
Method: RNA Bind-n-Seq
Form: RNA
Matrix: in vitro
Tested at: 365 nM
Notes: natural RNA segment, single round, ends assumed
Baseline: no-protein control
Reading: higher = stronger binding
All sequences stand within: GGGAGUUCUACAGUCCGACGAUC … UGGAAUUCUCGGGUGCCAA
Target sequence (chain): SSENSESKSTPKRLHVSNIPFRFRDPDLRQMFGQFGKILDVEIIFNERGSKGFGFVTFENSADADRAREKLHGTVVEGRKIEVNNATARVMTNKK
`UGGGAUCUCAGGAGGGCAGCCACGGAGUGGGGAGGCCCCAGAUGCGCUGUGCCAAAGCCAGGUCCGAGGCCAAAGUUCUCCCUGCCAUCCUUGGUGCCGUCCUGCCCCUU`: “RBNS enrichment (R)” 0.892.
Under “RBNS enrichment (R)”, `UCGCUGCUUCGUUGUCUGAUUUUGCUUAGAUUUUGCUUUGGUUAGGUUGCGUUUUGGGGUUUGCCUUUUUUUGUUGUCGCUUAAAUGCAAUUUGGUUGUAAAGAUUUGAU` is recorded as 0.631.
`GCAUCGAUCGAAGCAAAAGGUGAUGUGUGUAUAUCAGAAAAAAGAAAUUAACUGUAUAUCAUUCCAGUACAUUCCGUUGUACAUUUUAGUCUCCGUUUACUUUCUCUUCA`: “RBNS enrichment (R)” 0.395.
`AAAGAGUGGAACUAUCCAAAAGAGACAGGGAGAAAUAAAUAAAUUGCCUCCCUUCCUCCGCUCCCCUUUCCCAUCACCCCUUCCCCAUUUCCUCUUCCUUCUCUACUCAU`: “RBNS enrichment (R)” 1.29.
Under “RBNS enrichment (R)”, `CAUGUCAUAACUAUCUAUACAGUAUAUAUUAAAAGAAAGCUUGUACUGUAUCUUAUUUGAUGAUAUUUAUUUUCUCUGCCAAGCUGUAUAGUAAAAGGAAAAUAAGUCAC` is recorded as 0.52.
`AGCUUGCUGUCAUUUCUGAACCCAGGAUCUGUCAUCAAAUGAAACAUGUUUAAAAAGUGACUCUGAAGGUGAAAAGAGUUUCAAGCAUUCCAAAUGAAUUCUCAGCGUUU`: “RBNS enrichment (R)” 0.638.
For `AUCCAAGCCGCAUAUCUACUGCAUUAAAUUUGUCCAUUUGGUUAUUCAUAAUCGGGUAUUGCAUUUUGCCUUCCCUGUCCAUACCUCAAAUUGAUUGAUACCUCAGUUUA`, “RBNS enrichment (R)” read 2.4.
`AGCUGCUGUGAGCCAUGUCCUUGUGUGUGUCUGUUCACUCUUAGGAGCCACGCCCAAGGCGAGACUUCCAGCCCCAACACCCACUUUGGAAGCCCUGUGGCCACAUGUAU` — result for “RBNS enrichment (R)”: 0.349.
`UAAAAACUUGGGACUAUACAUGGUGAACUUACAGGAGGUUAGGGGGGAAAUAUUACUUAUCCAUCAGGUUUCUCUUUGGUUUUUGUAAACGGAGAGGACAGUUCUUAGUC`: “RBNS enrichment (R)” 0.979.
`UAGAAUAGGACUGGUUUUGUUUACCUCACCUAUGAGGUUGGCAGUAGCUCCCAACCCAUUUCACAAGAGGAGGUUUGACCAUUACGCUCUCAGCUAUUCCUGCAGCCAUG` — result for “RBNS enrichment (R)”: 0.256.
`UUGGGUUGUGUUUUGUGUCUGAGUCCCCUCCCUCAUCCCUUAGGGUCCAGAAGAGCAAUGGAGGAAGUGACAGCUAAUGUUGCAGUUCUUAUUGUAUGGCAUAGGACUGG`: “RBNS enrichment (R)” 0.854.
`CAUUCCCGCCACUGUGUCUCUGUGUAUUGAAAGCCUCUCCUGUGACCACAGCCUGUGUUGACAGAUGUCUGUCUGUCCCUGUGCAAUCCAGUCUGGGCCUCAGACUCAGA` — result for “RBNS enrichment (R)”: 0.433.

Some of these lines once more (study 3):
Under “normalised enrichment score”, `L7A` is recorded as 0.0146.
`R2I`: “normalised enrichment score” 0.102.
Under “normalised enrichment score”, `L8S` is recorded as 0.0966.
`K4W`: “normalised enrichment score” 0.721.
`R5A`: “normalised enrichment score” 0.181.
`Y3F`: “normalised enrichment score” -0.054.
Under “normalised enrichment score”, `Y3W` is recorded as -0.0665.
For `Y3G`, “normalised enrichment score” read -0.00227.
For `L8G`, “normalised enrichment score” read 0.168.
